Published values pooled from the literature.
Each numbered part is a random draw from the data of one study; scales do not carry over between parts.

Set 1
Target: RING finger protein unkempt homolog, zinc fingers 1-6, GST-SBP tag (UNK, Homo sapiens, UniProt Q9C0B0, residues 30-357)
UniProt Q9C0B0, sequence (30-357, looked up): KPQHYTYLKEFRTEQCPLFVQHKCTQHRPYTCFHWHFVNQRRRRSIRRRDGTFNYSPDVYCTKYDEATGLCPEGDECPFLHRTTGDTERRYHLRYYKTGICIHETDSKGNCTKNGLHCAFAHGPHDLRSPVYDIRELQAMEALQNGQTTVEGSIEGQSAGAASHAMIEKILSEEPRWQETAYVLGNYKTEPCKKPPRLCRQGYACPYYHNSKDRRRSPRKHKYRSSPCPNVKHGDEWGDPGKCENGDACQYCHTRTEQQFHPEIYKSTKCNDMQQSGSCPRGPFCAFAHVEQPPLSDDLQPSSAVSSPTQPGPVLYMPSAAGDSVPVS
Method: RNA Bind-n-Seq
Molecule type: RNA
Medium: in vitro
Concentration: not given
Notes: RNA with constant flanks, human-mouse chimeric sites, ends assumed
Reference: input RNA pool
Reading: higher = stronger binding
Constant ends, left off below: GGGAGUUCUACAGUCCGACGAUC … CAACAGAGGAUUGAGCAUCA
Sequence | bound/input enrichment [ratio]
CUUAAUGUUAAUAUUUUUGAAUAAAUGAAGCUAAAAUGUCUGCUUUUGGUACAACACGCAUUAAUAAAAGGUUAAGUAAGUUUUGUUCUCCACUGAAUAUUUAACAUCUCAGAAAAAAAC | 0.27
GUGACAGACAUUAAAAUUUCCCCUCAGCAAAGAAGUGCAGUAGUCACCAUAAUUCCAUCUGUGGUGAGUGCCAGUCAGAUUGUGGAGCUGGUCCCAGACCUCAGUUUAGACAUGGGAACU | 0.283
CACGUGUCUGCAGUACUUGAUGUGGACUACUCUCCCACUGGGAAGGAAUUUGUGUCUGCUAGUUUCGAUAAGUCUAUUAGAAUCUUUCCUGUGGACAAGAGCCGAAGCAGGGAAGUGUAU | 1.57
CACAGAGCAGCACCUACCUCCUCCUUCUUUCCACACCUGCAAACUCUUUUACUUGGGCUGAAUAUUUAGUGUUAAUUCAUCUCAGCUUUGAGGGCUCCUGUGGCAAAUUCCCGGAUUAAA | 0.534
AAAGAACCUCUCUCUGAUGAAGAUGAGGACAGUGAUGAUGAUGUUGAACCCAUUUCUGAAUUUCGAUUUGUGCCCAGUGAUAAGUCAGCAUUGGAGGCGAUGUUCACAGCAAUGUGUGAG | 0.234
CUGGCACUCUAUCAGAUAGAUUACUUUUUUAAUGUAGAUGUAAUUUUAAAAAUGAAUGGCUACUUUACACGUUUAACUAGGGUUUUACUACAUAUGUGUACAUAUGUAUAUAUAUAUAUA | 23.1
GCACUUGGGAAUGUAAUCAGCGCCUUGGGGGACAAGAGCAAGAGAGCCACCCAUGUCCCUUACAGAGACUCUAAGCUAACAAGACUAUUGCAGGAUUCCCUUGGGGGUAACAGCCAAACC | 0.196
AAAGAGAAACUAAAGCAACUAAUAGAGAAGAGGAUUGGCAAAGAGAAUUUCAUAGAGAAACUAGGAUUUUAUUAGCAACAUGAGUUAUAUUCCAGAGCGUCUCAGAAACCCCAGCCAAAC | 9.79

Set 2
Target: Prothrombin, mature alpha-thrombin (F2, Homo sapiens, UniProt P00734)
Method: aptamer microarray, sandwich
Molecule type: DNA with 2'F-ANA
Medium: in vitro
Concentration: 200 nM
Notes: whole 15-mer aptamer, many near background
Together with: Cy3 exosite-II aptamer, 400 nM
Reading: higher = stronger binding
Sequence: GGTTGGTGTGGTTGG
Modification | mean fluorescence intensity [a.u.]
2'F-ANA at 1 2 6 8 9 10 12 15 | 66.6
2'F-ANA at 1 4 5 6 7 9 10 12 14 | 45.1
2'F-ANA at 2 4 6 8 12 14 | 142
2'F-ANA at 2 4 5 7 8 12 13 14 | 46.7
2'F-ANA at 1 2 6 7 9 12 14 15 | 74.9
2'F-ANA at 2 3 6 10 13 15 | 398
2'F-ANA at 2 3 4 5 7 8 10 11 14 15 | 64.4
2'F-ANA at 1 3 6 7 9 11 12 14 15 | 93.6
2'F-ANA at 3 6 9 11 15 | 807
2'F-ANA at 2 3 4 5 7 8 10 11 12 15 | 53.8
2'F-ANA at 1 3 5 6 7 8 11 13 | 52.7
2'F-ANA at 1 2 3 4 6 8 10 11 12 13 15 | 71.9
2'F-ANA at 3 4 8 9 12 14 | 385
2'F-ANA at 2 4 9 14 15 | 88.1
2'F-ANA at 5 7 8 10 12 15 | 60.2
2'F-ANA at 1 2 3 4 7 11 15 | 150
2'F-ANA at 1 2 3 6 9 11 12 14 | 73.2
2'F-ANA at 2 3 9 10 11 13 15 | 318
2'F-ANA at 1 2 3 4 5 9 10 11 12 15 | 50
2'F-ANA at 1 2 10 12 13 15 | 69.8
2'F-ANA at 1 5 7 9 14 15 | 168
2'F-ANA at 3 5 6 9 12 15 | 199

Set 3
Target: RNA binding protein fox-1 homolog 2, RRM domain, GST-SBP tag (RBFOX2, Homo sapiens, UniProt O43251-10, residues 100-194)
Method: RNA Bind-n-Seq
Molecule type: RNA
Medium: in vitro
Concentration: 365 nM
Notes: natural RNA segment, single round, ends assumed
Reference: no-protein control
Reading: higher = stronger binding
Constant ends, left off below: GGGAGUUCUACAGUCCGACGAUC … UGGAAUUCUCGGGUGCCAA
Target sequence (chain): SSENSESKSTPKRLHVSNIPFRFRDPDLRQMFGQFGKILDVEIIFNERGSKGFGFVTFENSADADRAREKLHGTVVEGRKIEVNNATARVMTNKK
Sequence | RBNS enrichment (R)
ACCUAAAUGGACUUGAAAUUGAAGCAGGAAGGUUGGGUUCUCCAUGGAUGGAACUCACCUGCCUGAACUGAGCAGGAAUGUCAGUCUUCCACUGCCCCUCCCUGCCAUCU | 0.366
UCACUUGGUUUCAGCCAUAGUUCACCUUCCCUGUUCCAGGUUUAUUUAAUUCCAAAGGUGAGAGUUGGAGUGAGAUGUCUUCCAUAUCUAUACCUUUGUGCACAGUUGAA | 0.338
CUUCUACUUUGCCAGUUAUUUCAGACAGCACUACCAAGAGGAGGUGGUCAGCACUUGUUAUUGGCCUAUGAACUAAAAGCAAAUCAAAGCUCAUAAAUCAAAGCUCAUCA | 0.374
CACACCCUUCCCCUCCUGACAUCUUUAGUUUGGAGCACACAGAGGAAAUAGAACCUAAACACAUGCCCAGAAGUCCUGGUUCAAAAGCUUUACUAUGGAGCCUGCAUAUG | 0.428
GACAUGAAAUAUGUAACUAGGAAAAACUGUUAACAUUAAACAUCAUAUUUAUGCAAAUUAAAUGCCCUUAAAAUUUUGCCAUUUGUCUUUCAUUUUAAAGGUUAUUUGCC | 0.53
AAUCCAAAUAUCAAUUUGACAGAAUAACAAGGGUCAGAAAUUCAAAAUAGCUGUUAGACACCUUUGAUUCUUUGCUGCUCUCUGGUUAUGUAUGUGUGUUGUGCAUCUUC | 0.753
AAACACAAAUCAAGUUCCAAAUUUCAUUGGACUCCACUUGAAGACCAUGAGAAAAUAGCUUGGUCUGACCACAAUCUCCUGCUCAUGACUCUCUGAGGCUUCUUGUUAAA | 0.182
CCUUUAGAGGGUGUGCUUUGGACGCUGACCUCUUAGGGCUUUAGGACAGAGGGACGAUGUUGAGUCUAGAAGGGCACAAUAUGCCAGAGUUUUAUGGCCAGUGAUCCUCA | 0.312

Set 4
Target: Sal-like protein 4, full length isoform B (SALL4, Homo sapiens, UniProt Q9UJQ4-2, residues 1-616)
Method: universal PBM
Molecule type: double-stranded DNA, one strand shown
Medium: in vitro
Concentration: not given
Notes: 8-mer, flanks averaged, mean of replicates
Reading: higher = stronger binding
Sequence | E-score
GATATGGC | -0.0955
AACTACGT | 0.0999
GATCCTGC | -0.213
CGATTTAC | 0.00782
GGAGAGGA | -0.269
ATATACGC | 0.144
CTCCTCAA | -0.213
GGTTAGAA | -0.0158
AAACCTTA | 0.191
CTCGTAAC | 0.0345
CCCCAGCC | -0.259
AGGCGCGC | -0.163
CATAACTC | 0.252
GATGGGAA | 0.0195
CAGCGAGA | -0.194
CGTTTCTA | 0.0733

Some of these lines once more (set 2):
Modification | mean fluorescence intensity [a.u.]
2'F-ANA at 1 3 6 7 9 11 12 14 15 | 93.6
2'F-ANA at 1 2 6 8 9 10 12 15 | 66.6
2'F-ANA at 1 3 5 6 7 8 11 13 | 52.7
2'F-ANA at 2 3 9 10 11 13 15 | 318
2'F-ANA at 2 4 9 14 15 | 88.1
2'F-ANA at 1 5 7 9 14 15 | 168
2'F-ANA at 5 7 8 10 12 15 | 60.2
